Results collected from several papers.
Parts stem from different laboratories: compare values within a part only. Several values in a cell are separate wells, animals, samples, runs or records.
UniProt Q16644, sequence (whole entry, looked up): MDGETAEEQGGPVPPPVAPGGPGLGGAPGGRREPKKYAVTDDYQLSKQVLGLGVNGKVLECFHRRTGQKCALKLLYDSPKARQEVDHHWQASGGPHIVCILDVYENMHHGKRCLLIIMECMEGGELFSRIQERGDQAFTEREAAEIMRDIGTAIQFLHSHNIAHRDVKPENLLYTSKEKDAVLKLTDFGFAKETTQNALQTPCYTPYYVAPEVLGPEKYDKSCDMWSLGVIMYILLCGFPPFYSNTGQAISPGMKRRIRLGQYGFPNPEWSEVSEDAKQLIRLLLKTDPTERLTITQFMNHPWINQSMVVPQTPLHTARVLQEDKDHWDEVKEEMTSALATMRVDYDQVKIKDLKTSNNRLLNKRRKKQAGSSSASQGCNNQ
UniProt Q15835, sequence (whole entry, looked up): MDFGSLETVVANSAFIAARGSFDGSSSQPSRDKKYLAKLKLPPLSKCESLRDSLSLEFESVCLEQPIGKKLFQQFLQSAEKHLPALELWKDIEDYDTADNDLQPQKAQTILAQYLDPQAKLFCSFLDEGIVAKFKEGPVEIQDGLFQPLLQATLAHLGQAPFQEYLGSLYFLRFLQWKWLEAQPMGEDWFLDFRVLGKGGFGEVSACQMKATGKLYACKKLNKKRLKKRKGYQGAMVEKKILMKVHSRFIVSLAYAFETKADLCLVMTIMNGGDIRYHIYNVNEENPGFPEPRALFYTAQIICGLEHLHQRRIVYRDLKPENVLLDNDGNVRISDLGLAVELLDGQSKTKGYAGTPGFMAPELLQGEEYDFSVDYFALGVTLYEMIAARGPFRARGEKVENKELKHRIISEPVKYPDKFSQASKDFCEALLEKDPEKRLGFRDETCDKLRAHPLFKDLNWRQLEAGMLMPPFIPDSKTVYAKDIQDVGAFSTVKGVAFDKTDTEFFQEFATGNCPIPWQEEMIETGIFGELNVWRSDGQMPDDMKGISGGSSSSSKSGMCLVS
UniProt O96017, sequence (whole entry, looked up): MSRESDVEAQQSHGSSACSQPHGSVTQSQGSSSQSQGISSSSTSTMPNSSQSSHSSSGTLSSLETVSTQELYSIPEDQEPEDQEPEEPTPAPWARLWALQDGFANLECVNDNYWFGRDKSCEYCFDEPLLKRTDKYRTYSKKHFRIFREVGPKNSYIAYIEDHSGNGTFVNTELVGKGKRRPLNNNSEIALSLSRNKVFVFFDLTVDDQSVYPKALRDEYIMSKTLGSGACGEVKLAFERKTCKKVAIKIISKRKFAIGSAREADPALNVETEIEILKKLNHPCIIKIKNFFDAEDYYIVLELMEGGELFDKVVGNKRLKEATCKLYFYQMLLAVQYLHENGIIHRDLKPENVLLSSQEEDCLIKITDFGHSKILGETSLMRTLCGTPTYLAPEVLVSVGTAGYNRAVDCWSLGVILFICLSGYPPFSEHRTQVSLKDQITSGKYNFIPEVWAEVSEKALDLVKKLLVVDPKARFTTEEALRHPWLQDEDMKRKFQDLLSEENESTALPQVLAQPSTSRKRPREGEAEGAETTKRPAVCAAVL
UniProt P41743, sequence (whole entry, looked up): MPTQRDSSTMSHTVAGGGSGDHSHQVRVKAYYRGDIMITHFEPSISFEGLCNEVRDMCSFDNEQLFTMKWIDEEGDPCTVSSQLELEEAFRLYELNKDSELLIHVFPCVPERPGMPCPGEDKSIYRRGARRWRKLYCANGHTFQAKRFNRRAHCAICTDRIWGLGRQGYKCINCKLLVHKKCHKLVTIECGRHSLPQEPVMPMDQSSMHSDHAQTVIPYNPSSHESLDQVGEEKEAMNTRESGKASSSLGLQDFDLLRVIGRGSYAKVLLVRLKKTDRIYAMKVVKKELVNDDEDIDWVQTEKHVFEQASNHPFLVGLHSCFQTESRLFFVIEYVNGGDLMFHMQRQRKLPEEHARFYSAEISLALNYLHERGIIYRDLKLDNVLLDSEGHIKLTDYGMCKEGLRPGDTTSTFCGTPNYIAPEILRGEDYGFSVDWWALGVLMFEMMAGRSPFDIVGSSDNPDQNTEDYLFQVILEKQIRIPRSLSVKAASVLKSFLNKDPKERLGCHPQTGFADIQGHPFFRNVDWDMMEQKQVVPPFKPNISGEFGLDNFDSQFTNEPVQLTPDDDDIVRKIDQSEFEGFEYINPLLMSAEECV
UniProt O76039, sequence (whole entry, looked up): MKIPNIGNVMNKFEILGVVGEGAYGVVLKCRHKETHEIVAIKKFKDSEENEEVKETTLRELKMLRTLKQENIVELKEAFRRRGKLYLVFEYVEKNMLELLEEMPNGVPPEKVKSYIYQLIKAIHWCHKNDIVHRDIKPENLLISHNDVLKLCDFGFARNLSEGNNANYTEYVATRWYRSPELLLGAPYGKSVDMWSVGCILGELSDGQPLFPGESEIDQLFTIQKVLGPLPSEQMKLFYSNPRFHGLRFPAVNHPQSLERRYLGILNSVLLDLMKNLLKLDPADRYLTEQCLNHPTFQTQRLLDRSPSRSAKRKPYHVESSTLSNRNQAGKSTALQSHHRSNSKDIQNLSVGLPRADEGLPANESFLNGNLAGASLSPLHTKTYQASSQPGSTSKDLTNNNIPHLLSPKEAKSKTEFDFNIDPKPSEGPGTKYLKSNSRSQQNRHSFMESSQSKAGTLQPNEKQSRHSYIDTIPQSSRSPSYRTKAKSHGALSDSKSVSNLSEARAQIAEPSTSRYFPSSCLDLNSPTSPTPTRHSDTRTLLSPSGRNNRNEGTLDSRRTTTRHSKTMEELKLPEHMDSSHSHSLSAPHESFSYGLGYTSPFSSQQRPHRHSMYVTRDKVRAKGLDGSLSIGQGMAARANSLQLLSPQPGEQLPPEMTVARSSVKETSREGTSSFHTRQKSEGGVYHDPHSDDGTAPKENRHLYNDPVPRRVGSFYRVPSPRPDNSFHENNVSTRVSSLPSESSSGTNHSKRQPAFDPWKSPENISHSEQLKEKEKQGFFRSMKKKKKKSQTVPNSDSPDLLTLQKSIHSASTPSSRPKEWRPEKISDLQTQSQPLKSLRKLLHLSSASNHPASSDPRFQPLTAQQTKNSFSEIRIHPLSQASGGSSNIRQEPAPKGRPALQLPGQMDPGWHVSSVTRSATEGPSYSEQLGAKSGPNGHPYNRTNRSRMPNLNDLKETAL
UniProt O15530, sequence (whole entry, looked up): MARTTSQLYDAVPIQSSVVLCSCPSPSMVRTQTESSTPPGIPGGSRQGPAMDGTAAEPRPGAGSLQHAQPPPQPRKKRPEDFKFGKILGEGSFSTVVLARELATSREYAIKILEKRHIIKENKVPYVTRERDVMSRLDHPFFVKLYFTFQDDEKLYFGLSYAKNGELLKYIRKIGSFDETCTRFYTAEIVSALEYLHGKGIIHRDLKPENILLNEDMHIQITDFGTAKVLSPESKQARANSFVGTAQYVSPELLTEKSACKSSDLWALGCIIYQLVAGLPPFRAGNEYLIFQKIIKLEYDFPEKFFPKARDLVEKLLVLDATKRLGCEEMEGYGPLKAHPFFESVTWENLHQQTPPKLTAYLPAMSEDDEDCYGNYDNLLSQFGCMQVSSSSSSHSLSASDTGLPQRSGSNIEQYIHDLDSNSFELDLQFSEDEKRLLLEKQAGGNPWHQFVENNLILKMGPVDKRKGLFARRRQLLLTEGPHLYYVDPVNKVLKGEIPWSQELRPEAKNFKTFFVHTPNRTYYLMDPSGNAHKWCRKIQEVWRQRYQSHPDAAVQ
UniProt P42336, sequence (whole entry, unmodified, looked up): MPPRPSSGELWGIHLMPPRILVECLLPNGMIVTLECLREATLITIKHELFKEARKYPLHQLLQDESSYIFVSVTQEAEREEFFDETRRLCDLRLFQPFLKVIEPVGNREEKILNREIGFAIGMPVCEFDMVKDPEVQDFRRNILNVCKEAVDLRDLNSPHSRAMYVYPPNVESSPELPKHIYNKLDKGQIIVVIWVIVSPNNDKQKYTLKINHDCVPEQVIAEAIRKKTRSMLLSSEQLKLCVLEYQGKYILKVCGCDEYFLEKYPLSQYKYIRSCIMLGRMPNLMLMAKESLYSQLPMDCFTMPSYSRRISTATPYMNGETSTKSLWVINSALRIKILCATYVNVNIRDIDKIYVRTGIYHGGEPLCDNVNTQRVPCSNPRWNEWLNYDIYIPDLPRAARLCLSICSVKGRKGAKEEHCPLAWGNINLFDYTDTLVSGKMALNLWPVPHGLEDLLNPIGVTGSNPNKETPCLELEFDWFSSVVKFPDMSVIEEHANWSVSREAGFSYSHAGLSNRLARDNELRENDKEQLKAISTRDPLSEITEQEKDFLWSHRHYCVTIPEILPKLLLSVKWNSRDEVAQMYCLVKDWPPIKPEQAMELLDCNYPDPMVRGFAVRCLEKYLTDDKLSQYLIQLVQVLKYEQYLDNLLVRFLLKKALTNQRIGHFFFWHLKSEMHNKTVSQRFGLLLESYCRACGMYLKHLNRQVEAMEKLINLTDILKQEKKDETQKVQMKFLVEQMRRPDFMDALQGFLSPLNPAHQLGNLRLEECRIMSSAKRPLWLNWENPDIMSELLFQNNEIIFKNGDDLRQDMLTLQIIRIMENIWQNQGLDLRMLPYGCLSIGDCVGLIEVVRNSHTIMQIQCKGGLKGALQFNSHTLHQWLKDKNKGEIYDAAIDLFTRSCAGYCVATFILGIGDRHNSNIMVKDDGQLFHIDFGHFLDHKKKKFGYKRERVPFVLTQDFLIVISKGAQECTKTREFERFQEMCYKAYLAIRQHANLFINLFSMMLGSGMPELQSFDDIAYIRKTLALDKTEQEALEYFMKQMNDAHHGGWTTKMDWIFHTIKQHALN
UniProt Q00534, sequence (whole entry, looked up): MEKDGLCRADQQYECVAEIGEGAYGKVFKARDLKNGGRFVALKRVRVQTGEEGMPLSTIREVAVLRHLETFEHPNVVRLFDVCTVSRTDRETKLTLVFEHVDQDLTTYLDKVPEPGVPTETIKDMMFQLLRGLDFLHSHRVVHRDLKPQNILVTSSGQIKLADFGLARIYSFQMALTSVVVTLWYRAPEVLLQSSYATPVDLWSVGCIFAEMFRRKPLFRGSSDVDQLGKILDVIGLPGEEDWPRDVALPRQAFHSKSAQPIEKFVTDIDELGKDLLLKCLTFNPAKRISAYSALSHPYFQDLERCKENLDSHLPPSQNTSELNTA

Sample 1 — SMILES: CCCCc1c(-c2ccc(O)cc2)[nH]c2nccnc12; effect on: enzyme activity; mode: inhibitor; concentration: 0.5 µM; relative to: control
The remaining activity was 90.9% (DYRK3 (Homo sapiens, UniProt O43781)).
For STK17A (Homo sapiens, UniProt Q9UEE5): remaining activity read 84.9%.
The remaining activity was 45.2% (Cyclin-dependent kinase 1, with cyclin B (CDK1, Homo sapiens, UniProt P06493)).
It gave 60.9% for remaining activity (MAP4K4 (Homo sapiens, UniProt O95819)).
EPHB4 (Homo sapiens, UniProt P54760) — remaining activity: 86%.
The remaining activity was 92.8% (MAPKAPK3 (Homo sapiens, UniProt Q16644)).
It gave 86.7% for remaining activity (PHKG1 (Homo sapiens, UniProt Q16816)).
The remaining activity was 95.9% (PDPK1 (Homo sapiens, UniProt O15530)).
Cyclin-dependent kinase 6, with cyclin D3 (CDK6, Homo sapiens, UniProt Q00534) — remaining activity: 84.6%.
AXL (Homo sapiens, UniProt P30530) — remaining activity: 103%.
For CAMK2B (Homo sapiens, UniProt Q13554): remaining activity read 97%.
The remaining activity was 78% (EPHB1 (Homo sapiens, UniProt P54762)).
It gave 95.4% for remaining activity (SRMS (Homo sapiens, UniProt Q9H3Y6)).
It gave 108% for remaining activity (HIPK4 (Homo sapiens, UniProt Q8NE63)).
RPS6KA5 (Homo sapiens, UniProt O75582) — remaining activity: 101%.
It gave 71% for remaining activity (Cyclin-dependent kinase 4, with cyclin D3 (CDK4, Homo sapiens, UniProt P11802)).

Sample 2 — technique: competition with immobilised ligand; concentration: 1 µM
Compound: CC1=C(C#N)[C@@H](c2ccc3[nH]nc(C)c3c2)C(C#N)=C(c2ccc(Cl)cc2)N1
MAP3K20 (Homo sapiens, UniProt Q9NYL2); cell-free assay — remaining binding: 93.6%.
DCLK1 (Homo sapiens, UniProt O15075); cell-free assay — remaining binding: 79.2%.
The remaining binding was 91.2% (FGFR3 (Homo sapiens, UniProt P22607); cell-free assay).
It gave 25.2% for remaining binding (PIK3CA (Homo sapiens, UniProt P42336, M1043I); cell-free assay).
NUAK1 (Homo sapiens, UniProt O60285); cell-free assay — remaining binding: 100%.
PRKCI (Homo sapiens, UniProt P41743); cell-free assay — remaining binding: 99.4%.
For CHEK2 (Homo sapiens, UniProt O96017); cell-free assay: remaining binding read 100%.
MUSK (Homo sapiens, UniProt O15146); cell-free assay — remaining binding: 100%.
GRK1 (Homo sapiens, UniProt Q15835); cell-free assay — remaining binding: 65.5%.
It gave 100% for remaining binding (MAPK1 (Homo sapiens, UniProt P28482); cell-free assay).
The remaining binding was 88.5% (CDKL5 (Homo sapiens, UniProt O76039); binding).
FLT3 (Homo sapiens, UniProt P36888, F691L/ITD); cell-free assay — remaining binding: 100%.

Single results of other studies
Under interaction screen, `RPN2 (Homo sapiens, UniProt P04844)` is recorded as “cross-linked” (DDOST (Homo sapiens, UniProt P39656); cross-linking MS; hits only).
`CCCN1C(=O)[C@H](CC(C)C)NC(=O)[C@@H](N(C)C(=O)[C@H](CC2CCC2)NC(=O)[C@@H]2C[C@@H](F)CN2C(=O)[C@@](C)(O)C(F)(F)F)CCCCNC(=O)C2(CC2)NC(=O)[C@@H]1Cc1cc(Cl)ccc1Cl`: “phospho-KNL1 positive cells” 10.2% and 2.8% (immunohistochemistry; mice, NCI-H69 xenograft, tumour; intravenous, 100 mg/kg once daily, 18 h).
`COc1ccc(-c2c(Nc3ccccn3)[nH]c3c(C4=CCCCC4)c(-c4ccccc4)nn3c2=O)cc1` — result for “fluctuation over dosing interval”: 40.3% and 47.1% and 26% (human, plasma; oral, 200 mg twice daily).
Under interaction screen, `ATP5F1A (Homo sapiens, UniProt P25705)` is recorded as “cross-linked” (ATP5F1C (Homo sapiens, UniProt P36542); cross-linking MS; hits only).

A few entries again (sample 1):
For STK17A (Homo sapiens, UniProt Q9UEE5): remaining activity read 84.9%.
Cyclin-dependent kinase 6, with cyclin D3 (CDK6, Homo sapiens, UniProt Q00534) — remaining activity: 84.6%.
The remaining activity was 78% (EPHB1 (Homo sapiens, UniProt P54762)).
